Published values gathered from unrelated publications.
Protocols differ between the studies behind these lines. Several values in a cell are separate wells, animals, samples, runs or records. ± marks the error that the study gave.

| SMILES | assay | system | setting | tissue uptake |
| --- | --- | --- | --- | --- |
| CCCC[C@H](NC(=O)COCCOCCNC(=O)CN1CCN(CC(=O)O)CCN(CC(=O)O)CC1)C(=O)N[C@H]1CC(=O)NCCCC[C@@H](C(N)=O)NC(=O)[C@H](Cc2c[nH]c3ccccc23)NC(=O)[C@H](CCCNC(=N)N)NC(=O)[C@@H](Cc2ccccc2)NC(=O)[C@H](Cc2c[nH]cn2)NC1=O [fluorine-18 labelled] | – | C57 mice, B16/F10 melanoma, muscle | intravenous, 1 h, together with: NDP-MSH 10 µg | 0.47 ± 0.18 %ID/g |
| Cc1cc(C)n(CCN(CCN)CCCCCCNC(=O)[C@@H](N)Cc2c[nH]c3ccccc23)n1.[99Tc+].[C-]#[O+].[C-]#[O+].[C-]#[O+] | – | BALB/c nude mice, A549 xenograft, pancreas | intravenous, 15 min | 1 ± 0.09 %IA/g |
| CCCC[C@H](NC(=O)CNC(=O)CNC(=O)[C@H](CCCCNC(=O)[C@H](CC(N)=O)NC(=O)C(C)c1ccc(CC(C)C)cc1)NC(=O)CN1CCN(CC(=O)O)CCN(CC(=O)O)CCN(CC(=O)O)CC1)C(=O)N[C@H]1CC(=O)NCCCC[C@@H](C(N)=O)NC(=O)[C@H](Cc2c[nH]c3ccccc23)NC(=O)[C@H](CCCNC(=N)N)NC(=O)[C@@H](Cc2ccccc2)NC(=O)[C@H](Cc2c[nH]cn2)NC1=O (some centres unmarked) [lutetium-177 labelled] | – | C57 mice, tumour-bearing, bone | 2 h | 0.88 ± 0.34 %ID/g |
| N#C[C@@H]1CCCN1C(=O)CNC(=O)c1ccnc2ccc(OCCCN3CCN(C(=O)CCc4ccc5c(c4)CN4CCN(Cc6cc(CCC(=O)O)ccc6O)CC(=O)[O][Al-]([18F])([O]C(=O)C4)[O]5)CC3)cc12 (some centres unmarked) | – | BALB/c nude mice, U-87 MG xenograft, lung | 2 h | 1.28 ± 0.33 %ID/g |
| O=C(NCC1OC2CCC=CCCC2O1)c1ccc(COCCOCCOCC[18F])cc1 (centres unmarked) | – | healthy female BALB/c nude mice, muscle | intravenous, 7.4 MBq per mouse, 30 min | 2.2 ± 0.1 %ID/g |
| CCCC[C@H](NC(=O)CCCCCCCNC(=O)CN1CCN(CC(=O)O)CCN(CC(=O)O)CC1)C(=O)N[C@H]1CC(=O)NCCCC[C@@H](C(N)=O)NC(=O)[C@H](Cc2c[nH]c3ccccc23)NC(=O)[C@H](CCCNC(=N)N)NC(=O)[C@@H](Cc2ccccc2)NC(=O)[C@H](Cc2c[nH]cn2)NC1=O [fluorine-18 labelled] | – | C57 mice B16-F10 melanoma, bone | intravenous, 0.37 MBq, 1 h | 0.91 ± 0.67 %ID/g |
| O=C(NCC1OC2CCC=CCCC2O1)c1ccc([18F])nc1 (centres unmarked) | – | healthy female BALB/c nude mice, liver | intravenous, 7.4 MBq per mouse, 120 min | 0.9 ± 0.2 %ID/g |
| COc1ccc2c(c1)C(C)(C)C(/C=C/C1=C(Oc3ccc(C(=O)NCCCCOc4cc(CN(Cc5ccccn5)Cc5ccccn5)cc(CN(Cc5ccccn5)Cc5ccccn5)c4)cc3)C(=C/C=C3/N(CCCCS(=O)(=O)[O-])c4ccc(OC)cc4C3(C)C)CCC1)=[N+]2CCCCS(=O)(=O)[O-].O=[N+]([O-])[O-].O=[N+]([O-])[O-].[99Tc+].[C-]#[O+].[C-]#[O+].[C-]#[O+].[Zn+2] | – | BALB/c mice, healthy, large intestine and caecum | intravenous, 0.74 MBq, 12 h post-injection | 2.99 %ID/g and 2.79 %ID/g and 4.45 %ID/g and 6.89 %ID/g |
| Cc1cc(C)n(CCN(CCN)CCCCCCNC(=O)[C@@H](N)Cc2c[nH]cn2)n1.[99Tc+].[C-]#[O+].[C-]#[O+].[C-]#[O+] | – | BALB/c nude mice, A549 xenograft, liver | intravenous, 24 h | 8.6 ± 1.39 %IA/g |
| COc1ccc(Nc2nc(Nc3ccc(OCCOCC[18F])cc3)ncc2Br)cc1 | – | ICR mice, S180 tumour-bearing, brain | intravenous, 370 kBq, 120 min | 1.83 ± 0.32 %ID/g |
| CC(C)C[C@H](NC(=O)[C@@H](CCCCNC(=O)[C@@H](Cc1ccccc1)NC(=O)CCCCCCCNC(=O)CN1CCN(CC(=O)O)CCN(CC(=O)O)CCN(CC(=O)O)CC1)NC(=O)[C@H](Cc1ccc(O)cc1)NC(=O)[C@H](CO)NC(=O)[C@H](Cc1c[nH]c2ccccc12)NC(=O)[C@H](Cc1c[nH]cn1)NC(=O)[C@@H]1CCC(=O)N1)C(=O)N[C@@H](CCCNC(=N)N)C(=O)N1CCC[C@H]1C(=O)NCC(N)=O [indium-111 labelled] | biodistribution | male athymic nude mice, DU-145 prostate cancer xenograft, muscle | intravenous, 0.037 MBq, 2 h post-injection | 0.11 ± 0.03 %ID/g |
| COc1ccc(Nc2nc(Nc3ccc(OCCOCCOCC[18F])cc3)ncc2Br)cc1 | – | ICR mice, S180 tumour-bearing, spleen | intravenous, 370 kBq, 60 min | 1.25 ± 0.11 %ID/g |
| N#C[C@@H]1CCCN1C(=O)CNC(=O)c1ccnc2ccc(OCCCN3CCN(C(=O)CCc4ccc(O)c(CN5CCN6CC(=O)[O][Al-]([18F])([O]C(=O)C5)[O]c5ccc(CCC(=O)N7CCN(CCCOc8ccc9nccc(C(=O)NCC(=O)N%10CCC[C@H]%10C#N)c9c8)CC7)cc5C6)c4)CC3)cc12 (some centres unmarked) | – | BALB/c nude mice, U-87 MG xenograft, lung | 1 h | 6 ± 1.29 %ID/g |
| O=C([O-])CN1CCN(CC(=O)[O-])CCN(CC(=O)NC[C@H]2CC[C@H](C(=O)N[C@H](Cc3cnc4ccccc4c3)C(=O)NCCCC[C@H](NC(=O)N[C@@H](CCC(=O)O)C(=O)O)C(=O)O)CC2)CCN(CC(=O)[O-])CC1.[64Cu+2] | ex vivo gamma counting | 22Rv1 tumour-bearing mice, bone | intravenous, 0.74 MBq, 6 h post-injection | 3.44 %ID/g |

A few entries again:
| SMILES | assay | system | setting | tissue uptake |
| --- | --- | --- | --- | --- |
| COc1ccc(Nc2nc(Nc3ccc(OCCOCCOCC[18F])cc3)ncc2Br)cc1 | – | ICR mice, S180 tumour-bearing, spleen | intravenous, 370 kBq, 60 min | 1.25 ± 0.11 %ID/g |
